Measured values gathered from unrelated publications.
Each line is one published result; not all experiments were run side by side. Numbers after ± are the reported error.

SMILES	assay	system	conditions	scale	quantity	result
CC[C@H]1[C@@H](O)[C@@H]2[C@H](CC[C@]3(C)[C@@H]([C@H](C)CCOS(=O)(=O)[O-])CC[C@@H]23)[C@@]2(C)CC[C@@H](O)C[C@@H]12.[Na+]		ob/ob NASH mouse model	oral, 3 mg/kg once daily, before treatment, baseline of 8 week study		body weight	48.2 ± 1 g
O=[N+]([O-])c1ccc(Cl)c(-c2nnc(S)o2)c1	superoxide scavenging, pyrogallol				IC50	48.1 ± 1.9 µM
CCCC[C@H](NC(=O)[C@@H](NC(=O)[C@H](CC(=O)O)NC(=O)[C@H](CCC(N)=O)NC(=O)[C@H](CC(C)C)NC(=O)[C@H](CC(C)C)NC(=O)[C@H](CCCN)NC(=O)[C@H](CCCNC(=N)N)NC(=O)[C@H](C)NC(=O)[C@H](CO)NC(=O)[C@H](CC(C)C)NC(=O)[C@H](CCC(N)=O)NC(=O)[C@H](CC)NC(=O)[C@H](CC(C)C)NC(=O)[C@@H](NC(=O)[C@H](CCCN)NC(=O)[C@H](CCCNC(=N)N)NC(=O)[C@H](Cc1ccc(O)cc1)NC(=O)[C@H](CO)NC(=O)[C@H](CC(N)=O)NC(=O)[C@@H](NC(=O)[C@H](Cc1ccccc1)NC(=O)[C@@H](NC(=O)[C@H](C)NC(=O)[C@H](CC(=O)O)NC(=O)[C@@H](C)NC(=O)[C@H](Cc1ccc(O)cc1)NC)[C@@H](C)CC)[C@@H](C)O)C(C)C)[C@@H](C)CC)C(=O)N[C@@H](CC(=O)O)C(=O)NCCCCNC(=N)N	GH release	rat, male, serum	subcutaneous, 3 µg/kg, 15 min	reference: reference GHRH agonist JI-38	relative potency	1.08
CC(=O)Nc1ccc(OC(=O)CCC(=O)[O][Pt-2]23([O]C(=O)CCC(=O)Oc4ccc(NC(C)=O)cc4)([NH2+][C@@H]4CCCC[C@H]4[NH2+]2)[O]C(=O)C(=O)[O]3)cc1	flow cytometry	BALB/c mouse, 4T1 tumour model, tumour tissue	dose not given	reference: CD3+ cells	CD8+ T cells	13.6%
O=C1/C(=C/c2ccccc2)Oc2c1c(O)cc1oc3cc(O)c(O)cc3c21	ABTS scavenging, absorbance				EC50	2990 µM
Cc1ccc(C(=O)Nc2ccc(CP(=O)(O)O)cc2CP(=O)(O)O)cc1NC(=O)c1cccc(NC(=O)Nc2cccc(C(=O)Nc3cc(C(=O)Nc4ccc(CP(=O)(O)O)cc4CP(=O)(O)O)ccc3C)c2)c1	prothrombin time	normal human plasma	1.5-fold increase		concentration for PT increase	> 750 µM
Cc1cc(O)c(C=O)c2c1C(=O)Oc1c(CO)c(O)c3c(c1O2)C(O)OC3=O (stereo not shown)		rat, male, streptozotocin-induced diabetes, seminal vesicle	oral, 10 mg/kg, 9 weeks		relative organ weight	0.22 ± 0.01 g
CCCC[C@H](NC(=O)[C@@H](NC(=O)[C@H](CC(=O)O)NC(=O)[C@H](CCC(N)=O)NC(=O)[C@H](CC(C)C)NC(=O)[C@H](CC(C)C)NC(=O)[C@H](CCCN)NC(=O)[C@H](CCCNC(=N)N)NC(=O)[C@H](C)NC(=O)[C@H](CO)NC(=O)[C@H](CC(C)C)NC(=O)[C@H](CCC(N)=O)NC(=O)[C@H](CC)NC(=O)[C@H](CC(C)C)NC(=O)[C@@H](NC(=O)[C@H](CCCN)NC(=O)[C@H](CCCNC(=N)N)NC(=O)[C@H](Cc1ccc(O)cc1)NC(=O)[C@H](CO)NC(=O)[C@H](CCC(N)=O)NC(=O)[C@@H](NC(=O)[C@H](Cc1ccccc1)NC(=O)[C@@H](NC(=O)[C@H](C)NC(=O)[C@H](CC(=O)O)NC(=O)[C@@H](C)NC(=O)CCc1ccc(O)cc1)[C@@H](C)CC)[C@@H](C)O)C(C)C)[C@@H](C)CC)C(=O)N[C@@H](CC(=O)O)C(=O)N[C@@H](CCCNC(=N)N)C(=O)NC	GH release	rat, male, serum	subcutaneous, 3 µg/kg, 30 min	reference: reference GHRH agonist JI-38	relative potency	0.9
N=C(N)NCCC[C@@H](N)C(=O)NCC(=O)N[C@H](CCC(=O)O)C(=O)N[C@H](CCCNC(=N)N)C(=O)N1CCC[C@@H]1C(=O)N1CCC[C@@H]1C(=O)N[C@H](CCCNC(=N)N)C(N)=O		nude mouse C6 subcutaneous tumour	intravenous, 4 µmol/kg, 30 min, added: Evans blue 1 mg intravenous	reference: PBS control	Evans blue tumour permeation increase	36.4%
C[C@H](NC(=O)COC(=O)[C@H](C)NC(=O)CO)C(=O)O		water	pH 8, 65 °C		depolymerization rate constant	100 h⁻¹

For quick reference, copied from above:
SMILES	assay	system	conditions	scale	quantity	result
Cc1ccc(C(=O)Nc2ccc(CP(=O)(O)O)cc2CP(=O)(O)O)cc1NC(=O)c1cccc(NC(=O)Nc2cccc(C(=O)Nc3cc(C(=O)Nc4ccc(CP(=O)(O)O)cc4CP(=O)(O)O)ccc3C)c2)c1	prothrombin time	normal human plasma	1.5-fold increase		concentration for PT increase	> 750 µM
Cc1cc(O)c(C=O)c2c1C(=O)Oc1c(CO)c(O)c3c(c1O2)C(O)OC3=O (stereo not shown)		rat, male, streptozotocin-induced diabetes, seminal vesicle	oral, 10 mg/kg, 9 weeks		relative organ weight	0.22 ± 0.01 g
